Assay results from different studies.
Parts stem from different laboratories: compare values within a part only. “And” joins repeats or separate records; there may be more than shown.
Sequence of UniProt P48729 (whole entry, looked up): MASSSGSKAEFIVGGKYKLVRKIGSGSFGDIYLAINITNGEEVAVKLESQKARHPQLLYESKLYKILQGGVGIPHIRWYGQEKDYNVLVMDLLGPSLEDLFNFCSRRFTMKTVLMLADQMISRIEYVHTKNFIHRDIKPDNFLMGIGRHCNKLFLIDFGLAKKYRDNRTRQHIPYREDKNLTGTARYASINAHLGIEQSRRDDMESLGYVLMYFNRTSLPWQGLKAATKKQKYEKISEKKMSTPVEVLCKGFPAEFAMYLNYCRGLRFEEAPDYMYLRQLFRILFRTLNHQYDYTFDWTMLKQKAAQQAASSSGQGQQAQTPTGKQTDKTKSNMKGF
Sequence of UniProt Q13422 (whole entry, looked up): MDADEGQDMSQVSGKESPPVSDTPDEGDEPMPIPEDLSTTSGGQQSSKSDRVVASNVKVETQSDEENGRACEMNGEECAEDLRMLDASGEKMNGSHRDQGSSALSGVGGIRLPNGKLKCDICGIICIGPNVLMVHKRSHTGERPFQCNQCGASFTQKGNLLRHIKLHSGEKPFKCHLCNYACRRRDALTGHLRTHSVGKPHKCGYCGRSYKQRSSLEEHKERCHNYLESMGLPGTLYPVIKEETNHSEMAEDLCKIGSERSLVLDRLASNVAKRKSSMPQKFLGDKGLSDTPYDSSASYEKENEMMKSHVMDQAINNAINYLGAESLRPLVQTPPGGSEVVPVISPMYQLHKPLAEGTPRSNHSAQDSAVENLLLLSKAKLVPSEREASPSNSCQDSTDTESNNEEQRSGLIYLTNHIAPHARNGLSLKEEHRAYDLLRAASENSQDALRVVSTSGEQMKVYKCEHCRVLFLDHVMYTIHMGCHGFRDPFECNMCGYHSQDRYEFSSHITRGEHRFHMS
Sequence of UniProt P21802 (whole entry, looked up): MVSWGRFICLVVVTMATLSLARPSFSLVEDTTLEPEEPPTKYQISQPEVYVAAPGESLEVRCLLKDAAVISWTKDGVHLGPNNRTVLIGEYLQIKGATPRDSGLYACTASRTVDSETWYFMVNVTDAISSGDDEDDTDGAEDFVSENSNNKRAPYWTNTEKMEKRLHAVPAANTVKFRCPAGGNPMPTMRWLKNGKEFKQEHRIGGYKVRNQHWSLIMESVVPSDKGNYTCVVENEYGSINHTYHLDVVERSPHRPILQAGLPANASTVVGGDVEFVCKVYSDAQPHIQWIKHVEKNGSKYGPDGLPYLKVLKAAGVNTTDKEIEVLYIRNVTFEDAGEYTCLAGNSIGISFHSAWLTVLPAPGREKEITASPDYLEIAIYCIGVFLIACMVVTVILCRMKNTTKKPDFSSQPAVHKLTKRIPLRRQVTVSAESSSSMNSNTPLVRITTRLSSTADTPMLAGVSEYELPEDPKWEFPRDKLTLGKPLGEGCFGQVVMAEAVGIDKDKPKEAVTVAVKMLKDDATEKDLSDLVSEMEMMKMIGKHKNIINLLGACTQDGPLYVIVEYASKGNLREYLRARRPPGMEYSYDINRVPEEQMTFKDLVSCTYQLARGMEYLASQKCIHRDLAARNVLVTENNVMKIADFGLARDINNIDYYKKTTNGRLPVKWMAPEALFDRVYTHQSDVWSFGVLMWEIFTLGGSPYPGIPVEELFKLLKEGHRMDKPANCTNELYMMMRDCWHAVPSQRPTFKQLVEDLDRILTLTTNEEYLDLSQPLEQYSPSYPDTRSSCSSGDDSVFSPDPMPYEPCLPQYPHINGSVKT

Set 1 — effect on: enzyme activity; mode: inhibitor; technique: Ub-TR-FRET; sample: HECT domain; direction: higher = more chain formation; quantity: ubiquitin chain formation AUC
Structure (SMILES): CN(C)C(=O)/C=C/CNCCCN1c2ccccc2CCc2ccc(Cl)cc21.Cl
Target: E3 ubiquitin-protein ligase NEDD4, HECT domain (Homo sapiens, UniProt P46934)
Construct (P46934 938-1319, limits assumed): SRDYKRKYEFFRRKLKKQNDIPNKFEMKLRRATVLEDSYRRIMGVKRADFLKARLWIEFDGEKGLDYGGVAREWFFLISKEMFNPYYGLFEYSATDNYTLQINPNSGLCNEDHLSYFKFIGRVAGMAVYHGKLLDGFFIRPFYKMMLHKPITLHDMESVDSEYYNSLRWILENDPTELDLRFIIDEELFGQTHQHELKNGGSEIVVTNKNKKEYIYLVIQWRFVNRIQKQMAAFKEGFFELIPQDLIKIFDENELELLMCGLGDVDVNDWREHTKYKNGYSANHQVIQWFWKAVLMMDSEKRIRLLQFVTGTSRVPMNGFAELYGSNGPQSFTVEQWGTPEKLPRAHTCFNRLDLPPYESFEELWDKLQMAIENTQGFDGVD
tested at = 11.11 µM; result = 124000 a.u. and 127000 a.u. and 126000 a.u.
tested at = 3.704 µM; result = 133000 a.u. and 135000 a.u. and 134000 a.u.
tested at = 0.1372 µM; result = 140000 a.u. and 139000 a.u.
tested at = 0.005081 µM; result = 139000 a.u.
tested at = 0.01524 µM; result = 140000 a.u. and 141000 a.u.

Set 2 — effect on: kinase activity; quantity: inhibition
Compound: CN(C1COC1)C(C)(C)/C=C(\C#N)C(=O)N1CCC[C@H]1Cn1nc(-c2ccc(Oc3ccccc3)cc2F)c2c(N)ncnc21
target = Serine/threonine-protein kinase pim-2 (PIM2, Homo sapiens, UniProt Q9P1W9); tested at = 0.1 µM; result = -1%
target = Cyclin-dependent kinase 5 (CDK5, Homo sapiens, UniProt Q00535); tested at = 1 µM; result = -4%
target = Fibroblast growth factor receptor 2 (FGFR2, Homo sapiens, UniProt P21802); tested at = 0.1 µM; result = 9%
target = Receptor tyrosine-protein kinase erbB-4 (ERBB4, Homo sapiens, UniProt Q15303); tested at = 1 µM; result = 95%
target = Proto-oncogene tyrosine-protein kinase ROS (ROS1, Homo sapiens, UniProt P08922); tested at = 1 µM; result = 3%
target = cAMP-dependent protein kinase catalytic subunit alpha (PRKACA, Homo sapiens, UniProt P17612); tested at = 1 µM; result = -5%
target = Phosphatidylinositol 4,5-bisphosphate 3-kinase catalytic subunit alpha isoform (PIK3CA, Homo sapiens, UniProt P42336); tested at = 1 µM; result = 8%
target = ALK tyrosine kinase receptor (ALK, Homo sapiens, UniProt Q9UM73); tested at = 0.1 µM; result = -3%

Set 3 — mode: degrader; quantity: remaining protein
Compound: Cn1cc(-c2cccc(CN3CCC4(CC3)COc3c4ccc4c3CN([C@H]3CCC(=O)NC3=O)C4=O)c2)cn1
IKZF4: Zinc finger protein Eos (IKZF4, Homo sapiens, UniProt Q9H2S9)
Sequence of UniProt Q9H2S9 (whole entry, looked up): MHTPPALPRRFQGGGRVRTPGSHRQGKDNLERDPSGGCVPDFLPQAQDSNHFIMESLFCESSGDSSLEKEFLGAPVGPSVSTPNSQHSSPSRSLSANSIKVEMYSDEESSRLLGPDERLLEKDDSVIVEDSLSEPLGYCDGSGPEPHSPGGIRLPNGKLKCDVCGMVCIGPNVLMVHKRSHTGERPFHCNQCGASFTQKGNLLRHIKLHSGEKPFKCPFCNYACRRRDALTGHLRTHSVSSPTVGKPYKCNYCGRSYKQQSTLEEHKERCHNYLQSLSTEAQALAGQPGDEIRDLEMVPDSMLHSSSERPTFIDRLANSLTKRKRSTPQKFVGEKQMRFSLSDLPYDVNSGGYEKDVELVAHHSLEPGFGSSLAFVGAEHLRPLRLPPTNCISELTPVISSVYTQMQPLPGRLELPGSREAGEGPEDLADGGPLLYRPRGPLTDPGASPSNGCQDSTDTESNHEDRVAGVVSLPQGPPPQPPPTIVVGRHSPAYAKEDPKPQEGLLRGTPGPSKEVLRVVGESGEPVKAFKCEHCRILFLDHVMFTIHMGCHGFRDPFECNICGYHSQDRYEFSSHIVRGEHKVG
CRBN/Zinc finger protein Helios: CRBN/Zinc finger protein Helios (Homo sapiens, UniProt Q96SW2+Q9UKS7)
Sequence of UniProt Q9UKS7 (whole entry, looked up): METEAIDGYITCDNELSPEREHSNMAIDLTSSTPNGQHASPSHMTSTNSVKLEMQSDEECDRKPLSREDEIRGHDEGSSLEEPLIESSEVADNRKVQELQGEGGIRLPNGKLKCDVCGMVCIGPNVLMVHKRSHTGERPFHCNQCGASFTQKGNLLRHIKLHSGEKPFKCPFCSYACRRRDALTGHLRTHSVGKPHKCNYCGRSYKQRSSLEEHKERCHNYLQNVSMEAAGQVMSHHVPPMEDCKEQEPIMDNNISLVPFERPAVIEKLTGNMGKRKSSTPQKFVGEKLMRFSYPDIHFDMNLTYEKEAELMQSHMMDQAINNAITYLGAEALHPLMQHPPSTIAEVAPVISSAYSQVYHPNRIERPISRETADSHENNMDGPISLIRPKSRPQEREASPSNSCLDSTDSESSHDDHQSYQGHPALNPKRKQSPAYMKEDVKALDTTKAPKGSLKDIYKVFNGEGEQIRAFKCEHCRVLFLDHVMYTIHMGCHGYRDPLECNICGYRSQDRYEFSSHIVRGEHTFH
Sequence of UniProt Q96SW2 (whole entry, looked up): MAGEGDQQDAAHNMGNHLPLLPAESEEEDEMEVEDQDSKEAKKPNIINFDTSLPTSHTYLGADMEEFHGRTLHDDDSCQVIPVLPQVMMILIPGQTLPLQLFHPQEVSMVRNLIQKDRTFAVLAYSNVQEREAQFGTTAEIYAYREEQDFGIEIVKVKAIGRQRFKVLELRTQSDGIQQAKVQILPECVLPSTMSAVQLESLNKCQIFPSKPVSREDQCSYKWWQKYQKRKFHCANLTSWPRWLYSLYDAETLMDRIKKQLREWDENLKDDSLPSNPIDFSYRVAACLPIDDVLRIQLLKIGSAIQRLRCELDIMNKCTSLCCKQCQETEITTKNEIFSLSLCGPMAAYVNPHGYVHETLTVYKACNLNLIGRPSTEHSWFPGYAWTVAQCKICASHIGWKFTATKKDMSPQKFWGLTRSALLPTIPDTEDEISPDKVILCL
GSPT1: Eukaryotic peptide chain release factor GTP-binding subunit ERF3A (GSPT1, Homo sapiens, UniProt P15170)
Sequence of UniProt P15170 (whole entry, looked up): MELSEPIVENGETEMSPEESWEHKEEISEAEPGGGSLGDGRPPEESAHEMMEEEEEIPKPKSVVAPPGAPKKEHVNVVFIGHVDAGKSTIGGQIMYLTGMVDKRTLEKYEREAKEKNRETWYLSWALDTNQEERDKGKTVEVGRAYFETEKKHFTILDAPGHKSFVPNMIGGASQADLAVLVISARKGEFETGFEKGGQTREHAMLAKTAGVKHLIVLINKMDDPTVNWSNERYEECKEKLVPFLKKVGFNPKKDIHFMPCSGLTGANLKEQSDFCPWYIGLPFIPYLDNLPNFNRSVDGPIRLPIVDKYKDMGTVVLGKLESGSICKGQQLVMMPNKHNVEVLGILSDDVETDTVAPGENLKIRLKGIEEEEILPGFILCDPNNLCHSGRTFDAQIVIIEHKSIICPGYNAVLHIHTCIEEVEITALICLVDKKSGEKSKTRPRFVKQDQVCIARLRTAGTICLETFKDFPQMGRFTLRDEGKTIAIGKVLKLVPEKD
SALL4: Sal-like protein 4 (SALL4, Homo sapiens, UniProt Q9UJQ4)
Sequence of UniProt Q9UJQ4 (whole entry, looked up): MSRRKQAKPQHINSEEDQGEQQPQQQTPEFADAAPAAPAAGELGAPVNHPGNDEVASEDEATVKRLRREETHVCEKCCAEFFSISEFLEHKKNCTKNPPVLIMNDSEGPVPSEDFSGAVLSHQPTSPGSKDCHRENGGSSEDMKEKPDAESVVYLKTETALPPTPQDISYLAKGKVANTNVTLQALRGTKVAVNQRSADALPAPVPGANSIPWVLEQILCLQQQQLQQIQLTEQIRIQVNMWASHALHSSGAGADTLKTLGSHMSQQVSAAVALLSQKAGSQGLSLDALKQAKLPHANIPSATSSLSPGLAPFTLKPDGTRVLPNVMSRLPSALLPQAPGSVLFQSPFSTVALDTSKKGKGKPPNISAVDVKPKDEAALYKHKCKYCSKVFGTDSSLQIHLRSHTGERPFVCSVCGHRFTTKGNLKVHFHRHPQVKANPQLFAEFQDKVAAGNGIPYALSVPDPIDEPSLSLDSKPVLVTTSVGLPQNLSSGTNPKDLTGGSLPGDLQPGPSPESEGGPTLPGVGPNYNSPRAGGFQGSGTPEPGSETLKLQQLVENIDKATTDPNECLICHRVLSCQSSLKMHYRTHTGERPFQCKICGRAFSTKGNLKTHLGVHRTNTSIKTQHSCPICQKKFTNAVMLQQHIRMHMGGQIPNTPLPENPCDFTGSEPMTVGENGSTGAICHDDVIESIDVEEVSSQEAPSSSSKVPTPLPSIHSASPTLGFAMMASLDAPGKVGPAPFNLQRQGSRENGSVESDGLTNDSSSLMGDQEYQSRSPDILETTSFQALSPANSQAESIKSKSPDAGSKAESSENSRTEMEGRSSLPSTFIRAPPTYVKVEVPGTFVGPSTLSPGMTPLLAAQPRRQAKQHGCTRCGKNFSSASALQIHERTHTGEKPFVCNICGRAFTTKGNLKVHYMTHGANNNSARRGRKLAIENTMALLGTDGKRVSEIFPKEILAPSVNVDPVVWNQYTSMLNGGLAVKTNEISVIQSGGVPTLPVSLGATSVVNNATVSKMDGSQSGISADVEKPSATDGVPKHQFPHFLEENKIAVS
target = IKZF4; technique = HiBiT; cells = HEK293; tested at = 111.1 nM; time = 6 h; result = 104% and 105%
target = CRBN/Zinc finger protein Helios; technique = flow cytometry; cells = primary human regulatory T cells; tested at = 37.04 nM; time = 3 h; result = 51.3% and 36%
target = Casein kinase I isoform alpha (CSNK1A1, Homo sapiens, UniProt P48729); technique = HiBiT; cells = HEK293; tested at = 4.572 nM; result = 101% and 104%
target = CRBN/Zinc finger protein Helios; technique = flow cytometry; cells = primary human regulatory T cells; tested at = 4.115 nM; time = 6 h; result = 68.7% and 59.6%
target = GSPT1; technique = HiBiT; cells = HEK293; tested at = 10000 nM; result = 101% and 110%
target = IKZF4; technique = HiBiT; cells = HEK293; tested at = 0.05081 nM; time = 6 h; result = 99.1% and 106%
target = SALL4; technique = HiBiT; cells = HEK293; tested at = 0.5081 nM; result = 98.5% and 83.1%
target = SALL4; technique = HiBiT; cells = HEK293; tested at = 13.72 nM; result = 76.8% and 74.4%
target = CRBN/Zinc finger protein Helios; technique = flow cytometry; cells = Jurkat; tested at = 0.2 nM; result = 99.6% and 103%
target = GSPT1; technique = HiBiT; cells = HEK293; tested at = 4.572 nM; result = 99.8% and 98%
target = DNA-binding protein Ikaros (Homo sapiens, UniProt Q13422); technique = HiBiT; cells = HEK293; tested at = 0.5081 nM; result = 99.1% and 98.2%
target = SALL4; technique = HiBiT; cells = HEK293; tested at = 1111.11 nM; result = 70.9% and 73.3%
target = GSPT1; technique = HiBiT; cells = HEK293; tested at = 41.15 nM; result = 96.6% and 99.7%
target = IKZF4; technique = HiBiT; cells = HEK293; tested at = 1000 nM; time = 6 h; result = 107% and 102%

Further values, each from its own experiment
SMILES = CC(C)NC(=O)N1CCC(NC2=Nc3cc(F)ccc3N(CC(F)F)c3ccc(Cl)cc32)C1 (stereo in doubt); target or system = colorectal tumour organoids; conditions = 0.1 µM; how to read = reference: DMSO; quantity = viability; result = 108%
SMILES = C=CCN1C(=O)C(O)(C(=O)O)Oc2cc(F)ccc21 (centres unmarked); target or system = Abutilon theophrasti; assay = fresh weight; conditions = 150 g ai/ha, pre-emergence treatment; quantity = inhibition; result = 87.2% and 84.3% and 94.3%

A few entries again (set 3):
target = CRBN/Zinc finger protein Helios; technique = flow cytometry; cells = primary human regulatory T cells; tested at = 37.04 nM; time = 3 h; result = 51.3% and 36%
target = IKZF4; technique = HiBiT; cells = HEK293; tested at = 1000 nM; time = 6 h; result = 107% and 102%
target = CRBN/Zinc finger protein Helios; technique = flow cytometry; cells = Jurkat; tested at = 0.2 nM; result = 99.6% and 103%
target = DNA-binding protein Ikaros (Homo sapiens, UniProt Q13422); technique = HiBiT; cells = HEK293; tested at = 0.5081 nM; result = 99.1% and 98.2%
